Assay results pooled from the literature.
Every numbered part comes from another study and shows a few of its results, in no order. Positions count from the first letter of the parent shown.

Series 1
Target: CCNB2, cyclin fold, Cln2 fusion (human)
Technique: yeast growth competition, sequencing
Sample: yeast
Notes: weak parent motif
Relative to: not given
Reading: higher = stronger binding
Starting sequence: SCAPER docking peptide (human); SNARRSLNFGGST
`SNARRSLNRGGST [F9R]` — result for “normalised enrichment score”: 0.466.
`SNALRSLNFGGST [R4L]` — result for “normalised enrichment score”: -0.396.
`SNARRSLNFLGST [G10L]`: “normalised enrichment score” -0.021.
`SNANRSLNFGGST [R4N]`: “normalised enrichment score” 0.184.
`SNARRALNFGGST [S6A]` — result for “normalised enrichment score”: 0.396.
`SNARASLNFGGST [R5A]`: “normalised enrichment score” -0.29.
`SNARRSLNFGGPT [S12P]` — result for “normalised enrichment score”: 0.515.
`SIARRSLNFGGST [N2I]` — result for “normalised enrichment score”: 0.225.
For `SNARISLNFGGST [R5I]`, “normalised enrichment score” read 0.235.
`SNARTSLNFGGST [R5T]`: “normalised enrichment score” 0.0263.
`SNACRSLNFGGST [R4C]` — result for “normalised enrichment score”: -0.392.
`SNARRFLNFGGST [S6F]`: “normalised enrichment score” 0.527.
For `SNARRSLNFGGSD [T13D]`, “normalised enrichment score” read 0.258.
`SNAKRSLNFGGST [R4K]`: “normalised enrichment score” 0.163.
Under “normalised enrichment score”, `SNARRSLNFGGAT [S12A]` is recorded as 0.654.
`SNARRSLNLGGST [F9L]` — result for “normalised enrichment score”: 0.0646.
Under “normalised enrichment score”, `SNYRRSLNFGGST [A3Y]` is recorded as 0.0733.
Under “normalised enrichment score”, `SNARRSLNIGGST [F9I]` is recorded as 0.248.
`SNAERSLNFGGST [R4E]` — result for “normalised enrichment score”: -0.609.
`SNVRRSLNFGGST [A3V]`: “normalised enrichment score” 0.21.
`ENARRSLNFGGST [S1E]` — result for “normalised enrichment score”: -0.643.
`SNARRSLNFIGST [G10I]`: “normalised enrichment score” 0.039.
`SNARRSLNFGCST [G11C]` — result for “normalised enrichment score”: 0.167.
For `SNARFSLNFGGST [R5F]`, “normalised enrichment score” read 0.46.
`SNARRSLNFGNST [G11N]`: “normalised enrichment score” -0.0519.

Series 2
Target: RING finger protein unkempt homolog, zinc fingers 1-6, GST-SBP tag (UNK, Homo sapiens, UniProt Q9C0B0, residues 30-357)
UniProt Q9C0B0, sequence (30-357, looked up): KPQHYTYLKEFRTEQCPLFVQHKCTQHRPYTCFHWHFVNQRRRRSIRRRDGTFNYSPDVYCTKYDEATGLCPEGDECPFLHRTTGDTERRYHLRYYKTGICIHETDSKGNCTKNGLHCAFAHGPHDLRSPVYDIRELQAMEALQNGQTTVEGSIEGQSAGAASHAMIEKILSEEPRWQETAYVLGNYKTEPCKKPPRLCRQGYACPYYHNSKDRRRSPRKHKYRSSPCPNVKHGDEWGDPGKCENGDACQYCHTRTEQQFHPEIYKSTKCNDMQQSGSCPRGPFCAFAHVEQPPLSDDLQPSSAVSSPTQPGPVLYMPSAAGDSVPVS
Technique: RNA Bind-n-Seq
Form: RNA
Sample: in vitro
Concentration: not given
Notes: RNA with constant flanks, human and mouse sites, ends assumed
Relative to: input RNA pool
Reading: higher = stronger binding
`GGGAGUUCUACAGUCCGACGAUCGCCUUCUUAUUGAUUUGUGUUGUCCUGAUCUGCAUCUUCACAAAAAGCCAGCGUUUGAAGGCCGUGGUCCUUGGAGGAGCACAGGUGUGCUCCAGGGUAAUCCCGCAGUGCCUCCAGAGGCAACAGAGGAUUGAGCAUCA` gave a bound/input enrichment of 0.11 ratio.
With `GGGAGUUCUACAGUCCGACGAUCGAAGAAUUGUAUUUGCAACGGGUAGCAGAAUUGGACAAAAUUACUUAUGAAAGAGACAGUUUUAGACAGGCAUAUGAAGAUCUUCGGAAACAAAGGCUUAAUGAAUUUAUGGCAGGUUUUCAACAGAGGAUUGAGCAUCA` the bound/input enrichment was 0.864 ratio.
The bound/input enrichment of `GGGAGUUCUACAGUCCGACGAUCCCUGCGACAGUUUUUAUGCUUUUUAGUGGUCAAGGAAGUUUGCUCCAACCUUUUAUAUACUAUAGAUUUCUUACCCUUCGAUAUUCGUCUCGAAGAAACCCAUAUUGUCGGACCUUAUUUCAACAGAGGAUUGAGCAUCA` is reported as 7.45 ratio.
For `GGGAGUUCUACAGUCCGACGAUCUAUGGCUUAAAAUGCUUUUGGAGUUUAUUUCUCAAAAUUAAAAUCUGGUCACAUGAGCUUUAGUUUGUUUUCUGGUUUAAAAAAUAAAAAGGUUUCUCUUAACAGUAUUUCCAGUGACAACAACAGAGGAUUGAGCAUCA`, the bound/input enrichment was 0.289 ratio.
`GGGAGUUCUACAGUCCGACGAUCUUUAAGUCUGGUGGCAUCCCAGCGCUGGUGAAAAUGCUUGGGUCACCAGUGGAUUCUGUACUGUUCUACGCCAUCACGACACUGCAUAAUCUCCUGCUCCAUCAGGAAGGAGCUAAAAUGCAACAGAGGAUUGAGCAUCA` has a bound/input enrichment of 0.0529 ratio.
The bound/input enrichment of `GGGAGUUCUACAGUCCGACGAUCGCAGAGCCAAGAGGAGAAACAUGGAGAGGCUGACACUUGCUUGUGGUGGGAUAGCUCUGAAUUCCUUUGAUGACCUGAAUCCUGACUGUUUGGGACAUGCAGAGCUUGUCUAUGAGUAUACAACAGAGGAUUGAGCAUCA` is reported as 0.349 ratio.
The bound/input enrichment of `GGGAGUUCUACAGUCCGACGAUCUGUGAUGGAGGUGUUUCUGCGACCAGACACAGGAUACCGCUGUGUCUGCACCCGGUUGCCUGCAUGGCCAGAGGAAAAGUCAGUUGGAUUAAACAUCAUGGUAUACUUGGCUGUUGUUUUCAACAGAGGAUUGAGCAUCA` is reported as 0.112 ratio.
For `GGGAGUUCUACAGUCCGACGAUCGUGCGAGGUCUCUUAGUGAAUGAGGAGAUCCUAGGGAACCAGAUCCACAUGCACGUAACAGCUAAGGAAUAUGGUGCCCGUGUCUCCAACCUACACAUGUACUCAGCUGUCUGUGCUGACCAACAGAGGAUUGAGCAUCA`, the bound/input enrichment was 0.058 ratio.
For `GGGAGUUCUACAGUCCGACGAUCGUCACAAGACCAAUAUUUGGUAUACUGGGCACAAUCCAUCUGGUGGCAGGUAAUUAUCUUAUAGUCAUUACCAAAAAGAUAAAAGUAGGUGAAUUUUUCAGUCAUGUAGUCUGGAAAGCACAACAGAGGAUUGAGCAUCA`, the bound/input enrichment was 1.54 ratio.
The bound/input enrichment of `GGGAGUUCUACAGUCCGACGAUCAAUGAAACUGCAGAAAAAACCCUGGGAGUCCUGGCAGAUGAAGACAACACAUUGCAACAAAAUAGCAGCAGCAGAAAUACCAGCUACAGCAGUGCAGUGCAAAAAGAAAUCACACUGCCUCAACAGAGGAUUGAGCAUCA` is reported as 0.191 ratio.
The bound/input enrichment of `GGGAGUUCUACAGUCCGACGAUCAAGAAAGAAAUGCAGCCUACACACCCGAUUCGCCUCGGCCUGGCGCUGAAUUUCUCAGUCUUUUACUAUGAGAUUCUAAACUCUCCUGAAAAGGCCUGCAGCCUGGCCAAAACGGCAUUUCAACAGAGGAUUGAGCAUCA` is reported as 0.141 ratio.

Series 3
Target: RNA binding protein fox-1 homolog 2, RRM domain, GST-SBP tag (RBFOX2, Homo sapiens, UniProt O43251-10, residues 100-194)
Technique: RNA Bind-n-Seq
Form: RNA
Sample: in vitro
Concentration: 365 nM
Notes: natural RNA segment, single round, ends assumed
Relative to: no-protein control
Reading: higher = stronger binding
Construct (chain): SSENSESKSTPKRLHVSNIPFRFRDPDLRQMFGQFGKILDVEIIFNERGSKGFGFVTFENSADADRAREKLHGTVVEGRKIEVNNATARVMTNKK
`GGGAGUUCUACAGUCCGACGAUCAUGGACAGACCCAGGUGAGGAGAGGCCUGGGGAUUGGGGAAGCUGUCAUCUCAGUGUUAAUAAUCAACUUGCUUCUAACACACUGGCUUAUCAGGGGAGGUCAUCCAGUCUGGAAUUCUCGGGUGCCAA` — result for “RBNS enrichment (R)”: 1.08.
Under “RBNS enrichment (R)”, `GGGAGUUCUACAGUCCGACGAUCAGAAGCAAGCCUCUUACAUAUUAGGAAAAUACCUGAAAAGUUAGUUCAUUUGUCAGAUCCAGUUUUCCUACAUACAUCUUUGUUCACAGUAUGCUAAGGGGAAAAAAAAAUGGAAUUCUCGGGUGCCAA` is recorded as 0.453.
`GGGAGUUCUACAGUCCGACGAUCUGACCUCAGGUGAUCCUCCCGCCUCAGCCUUCCAAAGUGCUGGGAUUACAAGCAUGAGCCACCGCACCCGGCCUCACAGUGACAGAUUCUGAGAAACAGCAUGCAAAACAUGGAAUUCUCGGGUGCCAA` — result for “RBNS enrichment (R)”: 35.2.
Under “RBNS enrichment (R)”, `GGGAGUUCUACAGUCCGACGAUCAGUACUUGGCAGGGCAGCAGCAAUCUUGCUGUGUUUGAUAUAACAUGCAUCCUUGGGCAGGUUGCCCUUAAAUCUUACACUGUGGUGAAGGGAUGUUUUUUUUGUAAUGCUGGAAUUCUCGGGUGCCAA` is recorded as 0.803.
`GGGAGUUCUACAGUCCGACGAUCCCCUUGGAGCUAGUCCCCUCAGCCUCAACUUUGAUCUGGCCUUUAGCCUCAAAGCUGCUGUACCUGCACAUGGUCCUGAGAACAUCUCUCUAGGCCUGUACCACACCUCUUGGAAUUCUCGGGUGCCAA` — result for “RBNS enrichment (R)”: 0.204.
`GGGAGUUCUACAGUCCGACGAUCUGACCAGUUAUAAGACUCGCUUUUCAGUCAUGGAUCCUGCAGAAAUCUGAGACCCACCCAUAUCCUAGCUUUUAACUGUCUUCGCUCCACCCUCAAAGAUGCUACUGGGCUGGAAUUCUCGGGUGCCAA`: “RBNS enrichment (R)” 0.481.
Under “RBNS enrichment (R)”, `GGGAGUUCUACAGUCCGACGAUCGCAGGAUCAGUCUAACUAUACUAUUAGGUGCAUGUAUUCUCUUUUCACUAACUUAUACUUGUCUAUCUAGAAUACAGGUCUUCCAGUCAGCUGGUCAUUUACCAGGUGUGUGGAAUUCUCGGGUGCCAA` is recorded as 0.308.
`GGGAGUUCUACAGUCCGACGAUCCAGCACAGUAACGUGCAUACAUAUCUGCAGGGCUGGAAUGGAAGCUUUAAAGGUGGUAGUGAUUUUUAUUUUGGAAGAAUCAUGUUACCUUUUUGUUAAAUAAAAUUUGUUGGAAUUCUCGGGUGCCAA`: “RBNS enrichment (R)” 0.563.
`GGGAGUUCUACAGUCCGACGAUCAGGAUGUGAUAUAUAAGUGUACAUAUGUGCUGUACACCUGGGACCUUCACCACUGUAGAUCCCAUGCAUGGAUCUAUGUAGUAUGCUCUGACUCUAAUAGGACUGUAUAUUGGAAUUCUCGGGUGCCAA`: “RBNS enrichment (R)” 4.36.

Series 4
Target: Sal-like protein 4, full length isoform A (SALL4, Homo sapiens, UniProt Q9UJQ4, residues 1-1053)
UniProt Q9UJQ4, sequence (whole entry, looked up): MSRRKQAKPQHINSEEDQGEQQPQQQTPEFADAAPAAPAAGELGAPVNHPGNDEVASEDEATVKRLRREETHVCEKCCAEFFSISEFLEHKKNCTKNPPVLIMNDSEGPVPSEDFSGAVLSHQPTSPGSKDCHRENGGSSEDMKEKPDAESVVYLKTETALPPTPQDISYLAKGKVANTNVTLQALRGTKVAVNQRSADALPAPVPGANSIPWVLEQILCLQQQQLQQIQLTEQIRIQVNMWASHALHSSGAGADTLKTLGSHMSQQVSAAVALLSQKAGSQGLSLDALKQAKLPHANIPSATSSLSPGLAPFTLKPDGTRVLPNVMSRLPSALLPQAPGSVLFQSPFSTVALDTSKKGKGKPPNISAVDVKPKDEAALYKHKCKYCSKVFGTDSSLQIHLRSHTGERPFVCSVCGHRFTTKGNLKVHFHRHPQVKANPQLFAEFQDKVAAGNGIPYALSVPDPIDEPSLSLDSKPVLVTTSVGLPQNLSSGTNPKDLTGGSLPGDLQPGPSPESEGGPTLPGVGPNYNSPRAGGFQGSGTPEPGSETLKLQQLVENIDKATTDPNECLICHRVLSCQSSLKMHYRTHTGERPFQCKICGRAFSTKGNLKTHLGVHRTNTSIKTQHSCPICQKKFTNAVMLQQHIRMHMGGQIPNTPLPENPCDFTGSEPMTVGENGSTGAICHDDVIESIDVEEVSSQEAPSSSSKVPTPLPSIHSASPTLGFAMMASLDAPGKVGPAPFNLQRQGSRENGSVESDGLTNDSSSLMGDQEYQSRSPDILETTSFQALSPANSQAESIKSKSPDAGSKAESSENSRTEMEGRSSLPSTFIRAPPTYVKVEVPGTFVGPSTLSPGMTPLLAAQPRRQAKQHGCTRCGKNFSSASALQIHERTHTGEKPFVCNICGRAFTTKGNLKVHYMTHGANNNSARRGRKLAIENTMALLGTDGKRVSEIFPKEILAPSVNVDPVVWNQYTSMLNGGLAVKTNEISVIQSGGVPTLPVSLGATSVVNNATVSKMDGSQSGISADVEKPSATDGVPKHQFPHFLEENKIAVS
Technique: universal PBM
Form: double-stranded DNA, one strand shown
Sample: in vitro
Concentration: 600 nM
Notes: 8-mer, flanks averaged, mean of replicates
Reading: higher = stronger binding
For `AACAGCGT`, the E-score was 0.0492.
`CGGCAGTA` has an E-score of -0.217.
`AAATTAGT` gave an E-score of 0.311.
`GTTAAATA` has an E-score of 0.334.
With `AATCAGGC` the E-score was -0.0751.
`GCCCTACA` has an E-score of -0.137.
With `CTTGCGAA` the E-score was 0.136.
`GTGGTCAA` has an E-score of 0.015.
For `TCATACGA`, the E-score was 0.233.
`GAGTTGAC` has an E-score of -0.111.
`GGGGCACA` has an E-score of -0.0893.
The E-score of `AAGTCTAA` is reported as 0.181.
`ATGCCTTG` has an E-score of -0.0638.
The E-score of `CCACGAAG` is reported as -0.108.
`AATACCTA` has an E-score of 0.284.
`AGAATTCC` has an E-score of 0.0043.
With `AGATCATA` the E-score was 0.202.
`ACGCATAT` gave an E-score of 0.179.
`AGCAGCTC` has an E-score of -0.272.
`AGCTGTCC` has an E-score of -0.178.
`GCAAGCAC` has an E-score of -0.137.
With `CTTCGGAA` the E-score was 0.0127.
With `ATGACAGA` the E-score was 0.17.
`ATTGAAGC` gave an E-score of 0.176.
For `CTCCAAAA`, the E-score was 0.108.

A few entries again (series 2):
For `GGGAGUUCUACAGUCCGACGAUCUAUGGCUUAAAAUGCUUUUGGAGUUUAUUUCUCAAAAUUAAAAUCUGGUCACAUGAGCUUUAGUUUGUUUUCUGGUUUAAAAAAUAAAAAGGUUUCUCUUAACAGUAUUUCCAGUGACAACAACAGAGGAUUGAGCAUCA`, the bound/input enrichment was 0.289 ratio.
For `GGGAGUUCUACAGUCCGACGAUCGUCACAAGACCAAUAUUUGGUAUACUGGGCACAAUCCAUCUGGUGGCAGGUAAUUAUCUUAUAGUCAUUACCAAAAAGAUAAAAGUAGGUGAAUUUUUCAGUCAUGUAGUCUGGAAAGCACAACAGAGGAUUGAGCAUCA`, the bound/input enrichment was 1.54 ratio.
For `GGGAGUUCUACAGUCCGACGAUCGUGCGAGGUCUCUUAGUGAAUGAGGAGAUCCUAGGGAACCAGAUCCACAUGCACGUAACAGCUAAGGAAUAUGGUGCCCGUGUCUCCAACCUACACAUGUACUCAGCUGUCUGUGCUGACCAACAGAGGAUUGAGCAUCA`, the bound/input enrichment was 0.058 ratio.
The bound/input enrichment of `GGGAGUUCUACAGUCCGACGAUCCCUGCGACAGUUUUUAUGCUUUUUAGUGGUCAAGGAAGUUUGCUCCAACCUUUUAUAUACUAUAGAUUUCUUACCCUUCGAUAUUCGUCUCGAAGAAACCCAUAUUGUCGGACCUUAUUUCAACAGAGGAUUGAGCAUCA` is reported as 7.45 ratio.
